Measured values from different studies.
Compare with care: the assays were run in different laboratories. Numbers after ± are the reported error.
P2RY4: P2Y purinoceptor 4 (P2RY4, Homo sapiens, UniProt P51582)
Sequence of UniProt P51582 (whole entry, looked up): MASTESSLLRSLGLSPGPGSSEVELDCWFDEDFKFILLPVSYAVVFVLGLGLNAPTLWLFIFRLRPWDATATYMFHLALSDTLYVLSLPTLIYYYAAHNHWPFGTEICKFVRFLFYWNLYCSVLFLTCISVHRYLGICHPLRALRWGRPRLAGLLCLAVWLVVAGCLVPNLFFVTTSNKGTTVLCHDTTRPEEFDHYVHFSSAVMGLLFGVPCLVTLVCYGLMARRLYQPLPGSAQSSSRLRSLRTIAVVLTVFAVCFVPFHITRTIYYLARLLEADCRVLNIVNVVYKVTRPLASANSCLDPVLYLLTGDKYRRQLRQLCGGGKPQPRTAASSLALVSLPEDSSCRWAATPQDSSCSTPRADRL
Transcriptional regulator ComR: Transcriptional regulator ComR (Streptococcus mutans serotype c, UniProt Q8DWI6)
P2RY14: P2Y purinoceptor 14 (P2RY14, Homo sapiens, UniProt Q15391)
Sequence of UniProt Q15391 (whole entry, looked up): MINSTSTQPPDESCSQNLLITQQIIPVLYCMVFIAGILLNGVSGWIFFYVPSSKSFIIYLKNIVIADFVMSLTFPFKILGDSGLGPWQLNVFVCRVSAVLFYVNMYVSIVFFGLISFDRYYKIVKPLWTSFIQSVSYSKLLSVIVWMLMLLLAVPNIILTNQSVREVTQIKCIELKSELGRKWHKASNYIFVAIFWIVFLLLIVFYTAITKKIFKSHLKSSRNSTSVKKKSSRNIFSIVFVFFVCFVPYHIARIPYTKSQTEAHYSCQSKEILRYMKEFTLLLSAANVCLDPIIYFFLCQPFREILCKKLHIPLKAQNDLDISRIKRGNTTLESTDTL
P2RY2: P2Y purinoceptor 2 (P2RY2, Homo sapiens, UniProt P41231)
Sequence of UniProt P41231 (whole entry, looked up): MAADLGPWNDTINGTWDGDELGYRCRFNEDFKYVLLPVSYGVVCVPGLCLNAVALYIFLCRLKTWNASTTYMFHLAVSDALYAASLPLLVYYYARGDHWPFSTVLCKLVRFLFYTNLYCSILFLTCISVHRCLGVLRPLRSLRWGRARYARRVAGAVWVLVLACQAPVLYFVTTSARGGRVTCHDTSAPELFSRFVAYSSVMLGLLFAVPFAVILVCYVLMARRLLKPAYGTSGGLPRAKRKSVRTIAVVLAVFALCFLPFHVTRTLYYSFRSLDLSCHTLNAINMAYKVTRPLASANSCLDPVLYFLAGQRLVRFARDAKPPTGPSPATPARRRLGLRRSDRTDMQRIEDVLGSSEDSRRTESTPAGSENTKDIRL
P2Y purinoceptor 1: P2Y purinoceptor 1 (Meleagris gallopavo, UniProt P49652)
Sequence of UniProt P34972 (whole entry, unmodified, looked up): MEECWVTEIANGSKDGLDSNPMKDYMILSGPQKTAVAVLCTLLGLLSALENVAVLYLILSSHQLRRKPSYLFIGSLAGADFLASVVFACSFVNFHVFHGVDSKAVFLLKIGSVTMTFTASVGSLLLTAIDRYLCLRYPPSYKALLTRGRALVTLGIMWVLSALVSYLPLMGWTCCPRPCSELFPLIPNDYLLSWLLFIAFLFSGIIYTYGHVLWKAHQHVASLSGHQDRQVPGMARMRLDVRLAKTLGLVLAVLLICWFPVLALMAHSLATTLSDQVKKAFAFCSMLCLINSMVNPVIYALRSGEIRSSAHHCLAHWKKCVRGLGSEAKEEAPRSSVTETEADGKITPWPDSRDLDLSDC
Sequence of UniProt P49652 (whole entry, looked up): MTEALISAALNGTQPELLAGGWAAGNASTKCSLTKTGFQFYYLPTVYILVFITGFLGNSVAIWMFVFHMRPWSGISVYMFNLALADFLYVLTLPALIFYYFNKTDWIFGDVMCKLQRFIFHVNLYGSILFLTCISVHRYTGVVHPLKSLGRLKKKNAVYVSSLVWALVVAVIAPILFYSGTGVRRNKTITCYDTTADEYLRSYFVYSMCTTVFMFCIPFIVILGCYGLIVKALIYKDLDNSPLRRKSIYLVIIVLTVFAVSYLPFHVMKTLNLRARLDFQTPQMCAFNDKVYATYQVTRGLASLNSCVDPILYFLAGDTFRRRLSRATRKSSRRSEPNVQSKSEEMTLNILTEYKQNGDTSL
Sequence of UniProt P47870 (whole entry, looked up): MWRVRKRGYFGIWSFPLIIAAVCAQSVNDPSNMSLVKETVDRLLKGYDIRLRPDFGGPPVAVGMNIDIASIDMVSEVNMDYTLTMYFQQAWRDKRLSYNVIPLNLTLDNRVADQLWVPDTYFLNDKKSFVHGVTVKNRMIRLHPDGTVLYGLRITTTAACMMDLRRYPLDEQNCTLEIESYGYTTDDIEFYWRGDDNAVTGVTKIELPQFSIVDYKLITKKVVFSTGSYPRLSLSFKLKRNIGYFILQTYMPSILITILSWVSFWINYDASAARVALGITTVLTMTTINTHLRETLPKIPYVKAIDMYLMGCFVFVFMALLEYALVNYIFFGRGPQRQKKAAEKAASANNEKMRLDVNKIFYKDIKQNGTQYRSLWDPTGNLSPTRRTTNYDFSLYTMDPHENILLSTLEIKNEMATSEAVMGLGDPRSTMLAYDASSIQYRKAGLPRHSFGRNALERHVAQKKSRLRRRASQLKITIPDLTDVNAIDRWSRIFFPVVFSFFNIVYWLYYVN
Sequence of UniProt Q9HBX9 (whole entry, looked up): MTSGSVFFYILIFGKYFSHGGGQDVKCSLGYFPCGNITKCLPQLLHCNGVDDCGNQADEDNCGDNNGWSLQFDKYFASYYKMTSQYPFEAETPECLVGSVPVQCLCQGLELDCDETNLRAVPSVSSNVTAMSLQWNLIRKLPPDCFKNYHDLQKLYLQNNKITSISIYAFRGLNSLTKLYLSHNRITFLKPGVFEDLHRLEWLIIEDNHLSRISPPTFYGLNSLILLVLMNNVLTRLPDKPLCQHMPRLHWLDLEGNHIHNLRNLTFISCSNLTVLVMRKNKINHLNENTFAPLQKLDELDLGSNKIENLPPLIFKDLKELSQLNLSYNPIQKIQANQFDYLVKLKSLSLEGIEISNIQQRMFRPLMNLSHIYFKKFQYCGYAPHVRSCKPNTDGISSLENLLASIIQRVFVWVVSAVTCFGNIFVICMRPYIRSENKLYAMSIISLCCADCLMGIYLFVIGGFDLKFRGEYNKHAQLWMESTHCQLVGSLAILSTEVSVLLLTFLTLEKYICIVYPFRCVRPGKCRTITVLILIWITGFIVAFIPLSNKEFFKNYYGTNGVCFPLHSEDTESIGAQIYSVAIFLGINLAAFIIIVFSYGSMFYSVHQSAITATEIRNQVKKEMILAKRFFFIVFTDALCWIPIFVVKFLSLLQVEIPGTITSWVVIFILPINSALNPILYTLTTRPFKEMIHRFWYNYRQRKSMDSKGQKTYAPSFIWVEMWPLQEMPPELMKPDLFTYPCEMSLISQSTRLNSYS
Sequence of UniProt P08913 (whole entry, looked up): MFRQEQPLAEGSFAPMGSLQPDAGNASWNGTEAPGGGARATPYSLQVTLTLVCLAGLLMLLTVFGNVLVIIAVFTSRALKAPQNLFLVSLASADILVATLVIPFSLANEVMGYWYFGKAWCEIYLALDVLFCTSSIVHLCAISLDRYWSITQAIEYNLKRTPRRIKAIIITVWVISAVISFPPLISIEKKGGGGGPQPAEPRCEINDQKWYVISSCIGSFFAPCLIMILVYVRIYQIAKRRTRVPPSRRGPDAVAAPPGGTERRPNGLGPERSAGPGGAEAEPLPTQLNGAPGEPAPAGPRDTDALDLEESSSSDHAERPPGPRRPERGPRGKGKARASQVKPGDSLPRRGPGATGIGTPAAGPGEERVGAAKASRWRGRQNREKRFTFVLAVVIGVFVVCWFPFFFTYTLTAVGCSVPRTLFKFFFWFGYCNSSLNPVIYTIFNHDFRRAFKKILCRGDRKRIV
Sequence of UniProt P30874 (whole entry, looked up): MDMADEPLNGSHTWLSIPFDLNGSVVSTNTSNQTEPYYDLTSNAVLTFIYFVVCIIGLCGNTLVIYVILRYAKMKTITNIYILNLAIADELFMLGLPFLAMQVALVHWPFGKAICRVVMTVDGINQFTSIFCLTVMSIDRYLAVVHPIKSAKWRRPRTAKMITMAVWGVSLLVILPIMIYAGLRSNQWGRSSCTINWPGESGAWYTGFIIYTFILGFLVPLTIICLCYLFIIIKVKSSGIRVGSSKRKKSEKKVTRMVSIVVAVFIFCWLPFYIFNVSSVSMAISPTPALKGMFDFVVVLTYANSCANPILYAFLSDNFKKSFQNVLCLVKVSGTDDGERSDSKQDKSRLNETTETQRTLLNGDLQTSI
Sequence of UniProt P47869 (whole entry, looked up): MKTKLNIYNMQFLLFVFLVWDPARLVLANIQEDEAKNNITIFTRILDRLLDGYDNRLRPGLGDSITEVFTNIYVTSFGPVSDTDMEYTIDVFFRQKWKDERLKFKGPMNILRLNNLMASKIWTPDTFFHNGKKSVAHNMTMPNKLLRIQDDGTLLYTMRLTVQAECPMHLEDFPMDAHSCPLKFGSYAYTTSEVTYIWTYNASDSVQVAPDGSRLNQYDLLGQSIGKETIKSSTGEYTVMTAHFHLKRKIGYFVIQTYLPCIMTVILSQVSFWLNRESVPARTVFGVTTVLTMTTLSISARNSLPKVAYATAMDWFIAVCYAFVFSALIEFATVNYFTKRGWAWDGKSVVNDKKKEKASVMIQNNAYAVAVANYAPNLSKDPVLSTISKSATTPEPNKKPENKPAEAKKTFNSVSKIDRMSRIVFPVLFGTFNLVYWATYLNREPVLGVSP
Sequence of UniProt Q13485 (whole entry, unmodified, looked up): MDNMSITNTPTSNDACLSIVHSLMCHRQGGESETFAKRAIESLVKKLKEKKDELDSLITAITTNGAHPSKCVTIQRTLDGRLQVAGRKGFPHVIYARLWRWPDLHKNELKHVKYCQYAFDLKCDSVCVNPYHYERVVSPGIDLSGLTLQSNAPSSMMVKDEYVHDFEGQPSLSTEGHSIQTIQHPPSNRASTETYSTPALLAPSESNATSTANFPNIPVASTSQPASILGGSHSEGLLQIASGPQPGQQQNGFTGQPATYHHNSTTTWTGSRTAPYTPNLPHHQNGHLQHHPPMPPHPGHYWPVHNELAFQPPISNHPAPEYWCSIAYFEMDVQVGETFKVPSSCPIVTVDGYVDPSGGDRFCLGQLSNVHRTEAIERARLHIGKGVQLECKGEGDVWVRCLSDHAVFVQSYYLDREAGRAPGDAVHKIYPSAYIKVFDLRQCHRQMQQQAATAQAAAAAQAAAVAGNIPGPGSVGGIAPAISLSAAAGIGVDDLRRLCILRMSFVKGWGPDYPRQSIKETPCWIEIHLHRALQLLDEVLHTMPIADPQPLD

Molecule	target or system	test	test system	conditions	quantity	result
[BH3-][P+](O)(OP(=O)(O)OC[C@H]1O[C@@H](n2cnc3c(N)ncnc32)[C@H](O)[C@@H]1O)OP(=O)(O)OP(=O)(O)OC[C@H]1O[C@@H](n2ccc(=O)[nH]c2=O)[C@H](O)[C@@H]1O (stereo partly shown)	P2RY4	intracellular calcium rise, agonist	1321N1 expressing human P2Y4	37 °C	EC50	> 100000 nM
C[C@@]1(O)CC[C@@]2(C)[C@@H](CC[C@@H]3[C@@H]2CC[C@]2(C)[C@@H](c4cc(CO)on4)CC[C@@H]32)C1	GABA A receptor alpha-2/beta-2/gamma-2 (Homo sapiens, UniProt P18507+P47869+P47870)	GABA current potentiation, positive modulator, two-electrode voltage clamp	Xenopus laevis oocytes	30 s preincubation, with: GABA EC10	EC50	1410 ± 470 nM
Clc1ccc(Cl)c(-c2c(Cl)ccc(Cl)c2Cl)c1Cl	Estrogen receptor (ESR1, Homo sapiens, UniProt P03372)	reporter gene, agonist, luciferase	–	–	EC50	2900 nM
CCN(CC)CCCC(C)NC(=O)c1ccc2c(c1)C(=O)c1ccccc1C2=O (stereo not shown)	Estrogen receptor beta (ESR2, Homo sapiens, UniProt Q92731)	binding, fluorescence polarization competition	–	–	EC50	~234 nM
CC(C)C[C@H](NC(=O)CN)C(=O)N[C@@H](CC(=O)O)C(=O)N[C@@H](Cc1c[nH]c2ccccc12)C(=O)N[C@@H](Cc1c[nH]c2ccccc12)C(=O)N[C@@H](CO)C(=O)N[C@H](C(=O)O)C(C)C	Transcriptional regulator ComR	–	Streptococcus mutans	–	EC50	2400 nM
CC(C)[C@H](NC(=O)[C@@H]1CSSC[C@H](NC(=O)[C@@H](N)Cc2c[nH]cn2)C(=O)N[C@@H](Cc2ccccc2)C(=O)N[C@H](Cc2c[nH]c3ccccc23)C(=O)N[C@@H](CCCCN)C(=O)N[C@@H]([C@@H](C)O)C(=O)N1)C(=O)O	Somatostatin receptor type 3 (SSTR3, Homo sapiens, UniProt P32745)	–	–	–	EC50	4200 nM
C[C@]1(Cc2ccccc2)COc2cc(C(=O)N3CCCCC3)ccc21	Cannabinoid receptor 2 (CNR2, Homo sapiens, UniProt P34972)	GTPγS binding, agonist	–	cell membranes	EC50	961 nM
CC(C)C[C@H](NC(=O)[C@H](CCCNC(=N)N)NC(=O)[C@H](CCC(N)=O)NC(=O)[C@@H]1CCCN1)C(=O)N[C@@H](CCCNC(=N)N)C(=O)N[C@@H](Cc1c[nH]c2ccccc12)C(N)=O	Short neuropeptide F receptor (Drosophila melanogaster, UniProt Q9VW75)	calcium mobilization, agonist	HEK-293T transfected, Gα16	37 °C	EC50	5.55 ± 3.95 nM
CC(C)[C@H](NC(=O)[C@@H]1CSSC[C@H](NC(=O)[C@H](CC(N)=O)NC(=O)[C@@H](N)CCCCN)C(=O)N[C@@H](Cc2ccccc2)C(=O)N[C@H](Cc2c[nH]c3ccccc23)C(=O)N[C@@H](CCCCN)C(=O)N[C@@H]([C@@H](C)O)C(=O)N1)C(=O)O	Somatostatin receptor type 2 (SSTR2, Homo sapiens, UniProt P30874)	–	–	–	EC50	41 nM
O=c1ccn([C@@H]2O[C@H](COP(=O)(O)OP(=O)(O)OP(=O)(O)Oc3ccccc3)[C@@H](O)[C@H]2O)c(=O)[nH]1	P2RY4	PLC activation, agonist	1321N1, transfected	–	EC50	> 10000 nM
O=C(O)[C@H]1O[C@H](OP(=O)(O)OP(=O)(O)OC[C@H]2O[C@@H](n3ccc(=O)[nH]c3=O)[C@H](O)[C@@H]2O)[C@H](O)[C@@H](O)[C@@H]1O	P2RY14	cAMP accumulation inhibition, agonist	HEK293 expressing P2RY14	dose as dendrimer conjugate, with: forskolin 30 µM	EC50	370 ± 70 nM
COc1ccc2c(c1)c(C1=C(c3c[nH]c4ccccc34)C(=O)NC1=O)cn2CCCN(C)C	Mothers against decapentaplegic homolog 4, with SMAD3 (Homo sapiens, UniProt Q13485, R361H)	SMAD3 binding to SMAD4 R361H, GST pull-down	–	–	EC50	8900 ± 700 nM
CC(C)C[C@H](NC(=O)[C@H](CO)NC(=O)[C@H](Cc1c[nH]c2ccccc12)NC(=O)[C@H](Cc1c[nH]c2ccccc12)NC(=O)[C@H](C)NC(=O)[C@H](CC(C)C)NC(=O)CN)C(=O)O	Transcriptional regulator ComR	–	Streptococcus mutans	–	EC50	1000 nM
CCCN1CCc2cc(OC)cc3c2[C@H]1Cc1ccc(O)c(O)c1-3	D(2) dopamine receptor (Drd2, Rattus norvegicus, UniProt P61169)	cAMP, agonist	–	–	EC50	0.3 nM
[BH3-][P+](O)(OP(=O)(O)OC[C@H]1O[C@@H](n2ccc(=O)[nH]c2=O)[C@H](O)[C@@H]1O)OP(=O)(O)OP(=O)(O)OC[C@H]1O[C@@H](n2ccc(=O)[nH]c2=O)[C@H](O)[C@@H]1O (stereo partly shown)	P2RY2	intracellular calcium rise, agonist	1321N1 expressing human P2Y2	37 °C	EC50	> 100000 nM
autoinducing peptide I	AgrC-I sensor His mutant (Staphylococcus aureus)	reporter gene, agonist	Staphylococcus aureus P3-blaZ reporter, Staphylococcus aureus	–	EC50	> 10000 nM

Molecule	target or system	test	test system	conditions	quantity	result
[BH3-][P+](O)(OP(=O)(O)OC[C@H]1O[C@@H](n2cnc3c(N)ncnc32)[C@H](O)[C@@H]1O)OP(=O)(O)OP(=O)(O)OC[C@H]1O[C@@H](n2cnc3c(N)ncnc32)[C@H](O)[C@@H]1O (stereo partly shown)	P2RY2	intracellular calcium rise, agonist	1321N1 expressing human P2Y2	37 °C	EC50	> 100000 nM
CC(C)C[C@H](NC(=O)[C@H](CO)NC(=O)[C@H](Cc1c[nH]c2ccccc12)NC(=O)[C@H](Cc1c[nH]c2ccccc12)NC(=O)[C@H](CC(=O)O)NC(=O)[C@@H](N)CC(C)C)C(=O)O	Transcriptional regulator ComR	–	Streptococcus mutans	–	EC50	400 nM
CCCN(C/C=C/I)C1CCc2ccc(O)cc2C1 (stereo not shown)	Alpha-2A adrenergic receptor (ADRA2A, Homo sapiens, UniProt P08913)	G protein activation, agonist, BRET, refers to: Gαi3	HEK293T, transfected	Emax below 50%	EC50	60 ± 20 nM
O=C1Nc2cc(Cl)c(Cl)cc2N2CCNCC12 (stereo not shown)	5-hydroxytryptamine receptor 2B (HTR2B, Homo sapiens, UniProt P41595)	calcium signal, agonist	–	–	EC50	16 nM
[BH3-][P+](O)(OP(=O)(O)OC[C@H]1O[C@@H](n2ccc(=O)[nH]c2=O)[C@H](O)[C@@H]1O)OP(=O)(O)OP(=O)(O)OC[C@H]1O[C@@H](n2cnc3c(N)ncnc32)[C@H](O)[C@@H]1O (stereo partly shown)	P2RY4	intracellular calcium rise, agonist	1321N1 expressing human P2Y4	37 °C	EC50	> 100000 nM
C=C[C@@]1(C)CC(=O)[C@]2(O)[C@@]3(C)[C@@H](O)CCC(C)(C)[C@@H]3[C@H](O)[C@H](OC(C)=O)[C@@]2(C)O1	Relaxin receptor 1 (RXFP1, Homo sapiens, UniProt Q9HBX9)	agonist	–	–	EC50	47 nM
CCCCC/C=C\C/C=C\C/C=C\C/C=C\CCCC(=O)OC(CO)CO	Cannabinoid receptor 2 (CNR2, Homo sapiens, UniProt P34972, Q63R)	β-arrestin 2 recruitment, agonist, BRET	HEK293 coexpressing GRK2	–	EC50	1200 nM
BP(=O)(OC[C@H]1O[C@@H](n2cnc3c(N)ncnc32)[C@H](O)[C@@H]1O)OP(=O)(O)OP(=O)(O)OP(=O)(O)OC[C@H]1O[C@@H](n2cnc3c(N)ncnc32)[C@H](O)[C@@H]1O (stereo partly shown)	P2Y purinoceptor 1	calcium signal, agonist, fluorescence	–	–	EC50	6900 nM
CC(C)C[C@H](NC(=O)[C@H](C)NC(=O)[C@H](Cc1c[nH]c2ccccc12)NC(=O)[C@H](Cc1c[nH]c2ccccc12)NC(=O)[C@H](CC(=O)O)NC(=O)[C@H](CC(C)C)NC(=O)CN)C(=O)O	Transcriptional regulator ComR	–	Streptococcus mutans	–	EC50	260 nM
BP(=O)(OC[C@H]1O[C@@H](n2ccc(=O)[nH]c2=O)[C@H](O)[C@@H]1O)OP(=O)(O)OP(=O)(O)OC[C@H]1O[C@@H](n2ccc(=O)[nH]c2=O)[C@H](O)[C@@H]1O (stereo partly shown)	P2Y purinoceptor 1	calcium signal, agonist, fluorescence	–	–	EC50	4400 nM
CCCCC/C=C\C/C=C\C/C=C\C/C=C\CCCC(=O)NCCO	Glucose-dependent insulinotropic receptor (GPR119, Homo sapiens, UniProt Q8TDV5)	cAMP accumulation, agonist	HEK293	30 min	EC50	19700 nM
C/C=C(\N)C(=O)CCCCCCC	cqsS (Vibrio campbellii, UniProt A7N6S2)	bioluminescence, agonist	Vibrio harveyi, wild type	–	EC50	24 ± 7 nM
CN[C@@](C)(C[18F])C(=O)O	–	–	SCID mouse SK-OV-3 xenograft, lung	30 min, post injection	tissue uptake	1.9 ± 0.3 %ID/g
BP(=O)(OC[C@H]1O[C@@H](n2ccc(=O)[nH]c2=O)[C@H](O)[C@@H]1O)OP(=O)(O)OP(=O)(O)OP(=O)(O)OC[C@H]1O[C@@H](n2ccc(=O)[nH]c2=O)[C@H](O)[C@@H]1O (stereo partly shown)	P2RY2	calcium signal, agonist, fluorescence	–	–	EC50	24600 nM
O=C(O)[C@H]1O[C@H](OP(=O)(O)OP(=O)(O)OC[C@H]2O[C@@H](n3ccc(=O)[nH]c3=O)[C@H](O)[C@@H]2O)[C@H](O)[C@@H](O)[C@@H]1O	P2RY14	cAMP inhibition, agonist	CHO expressing human P2Y14	15 min, 37 °C, with: forskolin	EC50	47 nM

Repeated from above:
Molecule	target or system	test	test system	conditions	quantity	result
BP(=O)(OC[C@H]1O[C@@H](n2ccc(=O)[nH]c2=O)[C@H](O)[C@@H]1O)OP(=O)(O)OP(=O)(O)OC[C@H]1O[C@@H](n2ccc(=O)[nH]c2=O)[C@H](O)[C@@H]1O (stereo partly shown)	P2Y purinoceptor 1	calcium signal, agonist, fluorescence	–	–	EC50	4400 nM
CCCCC/C=C\C/C=C\C/C=C\C/C=C\CCCC(=O)NCCO	Glucose-dependent insulinotropic receptor (GPR119, Homo sapiens, UniProt Q8TDV5)	cAMP accumulation, agonist	HEK293	30 min	EC50	19700 nM
C/C=C(\N)C(=O)CCCCCCC	cqsS (Vibrio campbellii, UniProt A7N6S2)	bioluminescence, agonist	Vibrio harveyi, wild type	–	EC50	24 ± 7 nM
